{"data": "Measured values gathered from unrelated publications", "tmk": "Thymidylate kinase (tmk, Mycobacterium tuberculosis, UniProt P9WKE1)", "USP5": "Ubiquitin carboxyl-terminal hydrolase 5 (USP5, Homo sapiens, UniProt P45974)", "note": "Compare with care: the assays were run in different laboratories.", "chain of UniProt P45974 (whole entry, looked up)": "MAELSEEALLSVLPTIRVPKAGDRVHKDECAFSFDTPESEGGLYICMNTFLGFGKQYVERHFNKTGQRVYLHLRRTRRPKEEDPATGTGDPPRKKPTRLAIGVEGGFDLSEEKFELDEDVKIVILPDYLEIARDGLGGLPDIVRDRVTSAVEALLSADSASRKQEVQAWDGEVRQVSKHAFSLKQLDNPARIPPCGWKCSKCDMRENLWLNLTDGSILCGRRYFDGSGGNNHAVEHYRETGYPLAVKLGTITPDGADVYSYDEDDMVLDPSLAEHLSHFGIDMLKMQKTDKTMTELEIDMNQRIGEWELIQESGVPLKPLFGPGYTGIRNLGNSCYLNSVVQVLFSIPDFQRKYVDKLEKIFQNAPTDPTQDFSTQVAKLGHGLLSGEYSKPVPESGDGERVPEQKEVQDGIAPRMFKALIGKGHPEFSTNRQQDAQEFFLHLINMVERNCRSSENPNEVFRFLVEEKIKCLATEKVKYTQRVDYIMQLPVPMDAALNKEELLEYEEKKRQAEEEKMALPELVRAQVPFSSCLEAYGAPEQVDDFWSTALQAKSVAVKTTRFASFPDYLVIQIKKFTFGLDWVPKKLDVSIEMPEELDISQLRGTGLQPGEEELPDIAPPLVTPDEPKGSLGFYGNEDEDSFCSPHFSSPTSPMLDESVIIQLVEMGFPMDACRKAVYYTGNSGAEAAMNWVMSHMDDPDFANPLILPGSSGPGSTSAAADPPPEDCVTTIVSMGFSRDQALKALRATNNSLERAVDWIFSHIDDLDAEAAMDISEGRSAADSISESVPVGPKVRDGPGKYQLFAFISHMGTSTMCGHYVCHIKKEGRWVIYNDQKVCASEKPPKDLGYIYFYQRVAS", "chain of UniProt P9WKE1 (whole entry, looked up)": "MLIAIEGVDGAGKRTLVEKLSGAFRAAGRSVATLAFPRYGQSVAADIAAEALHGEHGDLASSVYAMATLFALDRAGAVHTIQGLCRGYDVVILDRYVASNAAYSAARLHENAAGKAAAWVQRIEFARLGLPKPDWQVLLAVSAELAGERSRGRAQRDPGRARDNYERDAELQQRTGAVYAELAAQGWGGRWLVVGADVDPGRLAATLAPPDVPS", "chain of UniProt P15273 (whole entry, looked up)": "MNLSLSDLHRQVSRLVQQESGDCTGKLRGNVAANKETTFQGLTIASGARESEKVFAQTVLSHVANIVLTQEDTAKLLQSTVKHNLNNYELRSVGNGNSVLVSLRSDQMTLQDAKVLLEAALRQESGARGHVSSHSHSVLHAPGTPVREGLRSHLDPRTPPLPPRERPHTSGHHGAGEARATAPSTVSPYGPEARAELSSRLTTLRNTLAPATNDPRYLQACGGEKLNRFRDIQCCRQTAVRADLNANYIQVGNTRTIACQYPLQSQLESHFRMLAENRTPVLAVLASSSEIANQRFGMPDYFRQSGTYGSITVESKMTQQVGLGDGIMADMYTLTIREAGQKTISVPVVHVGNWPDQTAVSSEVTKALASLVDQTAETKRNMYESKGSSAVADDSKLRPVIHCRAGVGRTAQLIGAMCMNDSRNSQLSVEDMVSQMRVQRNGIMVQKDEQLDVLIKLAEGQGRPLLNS", "chain of UniProt P28223 (whole entry, looked up)": "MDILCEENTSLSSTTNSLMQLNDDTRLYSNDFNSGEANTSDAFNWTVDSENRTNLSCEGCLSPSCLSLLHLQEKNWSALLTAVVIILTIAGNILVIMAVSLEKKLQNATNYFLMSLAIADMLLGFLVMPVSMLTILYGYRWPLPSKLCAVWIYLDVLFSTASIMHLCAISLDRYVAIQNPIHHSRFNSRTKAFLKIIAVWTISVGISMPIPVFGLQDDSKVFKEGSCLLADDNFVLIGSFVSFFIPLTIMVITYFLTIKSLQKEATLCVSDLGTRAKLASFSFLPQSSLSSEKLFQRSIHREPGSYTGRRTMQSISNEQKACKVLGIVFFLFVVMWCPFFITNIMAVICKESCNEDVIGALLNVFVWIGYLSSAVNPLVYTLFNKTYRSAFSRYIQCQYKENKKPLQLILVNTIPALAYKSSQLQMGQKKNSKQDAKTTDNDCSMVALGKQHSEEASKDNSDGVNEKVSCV"}
{"Compound": "CCOC(=O)C1=C(C)NC(=S)NC1c1ccc([N+](=O)[O-])o1 (racemic)", "target": "tmk", "test": "enzyme activity, inhibitor, absorbance", "conditions": "0.1 µg/mL", "inhibition [%]": 42.5}
{"Compound": "O=C(Nc1ccc(C(F)F)cc1)[C@H](CC1CCCCC1)Nc1nn2c(=O)ccnc2s1", "target": "Tyrosine-protein phosphatase YopH (Yersinia enterocolitica, UniProt P15273)", "test": "enzyme activity, inhibitor", "conditions": "10 µM", "inhibition [%]": 2}
{"Compound": "CCOc1cc(C=C2C(=O)NC(=O)NC2=O)cc(Cl)c1O", "target": "USP5", "test": "enzyme activity, inhibitor", "conditions": "17 µM", "inhibition [%]": 34}
{"Compound": "O=C(NC1CCN(c2ncnc3[nH]cnc23)CC1)c1cccc(NS(=O)(=O)c2ccc(C(F)(F)F)cc2)c1", "target": "Replicase polyprotein 1ab, nsp14 (rep, Human coronavirus 229E, UniProt P0C6X1)", "test": "enzyme activity", "conditions": "200 µM", "inhibition [%]": 96.6}
{"Compound": "CC(C)(C)N1C(=O)NC(=O)C(=Cc2ccccc2Cl)C1=O", "target": "USP5", "test": "enzyme activity, inhibitor", "conditions": "17 µM", "inhibition [%]": 27}
{"Compound": "Cc1cn(C2CC(O)C(COP(=O)(O)O)O2)c(=O)[nH]c1=O (stereo not drawn)", "target": "tmk", "test": "enzyme activity, inhibitor, absorbance", "conditions": "0.01 µg/mL", "inhibition [%]": 41.8}
{"Compound": "O=C1NC(=S)NC(=O)C1=C/C=C/c1ccco1", "target": "USP5", "test": "enzyme activity, inhibitor", "conditions": "17 µM", "inhibition [%]": 45}
{"Compound": "Cc1sc2c(c1C)C(c1ccc(Cl)cc1)=NC(CC(=O)OC(C)(C)C)c1nnc(C)n1-2 (stereo not drawn)", "target": "5-hydroxytryptamine receptor 2A (HTR2A, Homo sapiens, UniProt P28223)", "test": "ligand displacement, radioligand", "conditions": "1 µM", "inhibition [%]": 24}
{"Compound": "CCOC(=O)C1=C(C)NC(=NN=C2C(=O)Nc3ccccc32)NC1c1ccc(F)cc1 (stereo not drawn)", "target": "tmk", "test": "enzyme activity, inhibitor, absorbance", "conditions": "1 µg/mL", "inhibition [%]": 55.6}
{"note": "For quick reference, copied from above:"}
{"Compound": "CCOc1cc(C=C2C(=O)NC(=O)NC2=O)cc(Cl)c1O", "target": "USP5", "test": "enzyme activity, inhibitor", "conditions": "17 µM", "inhibition [%]": 34}
